{"data": "Published values gathered from unrelated publications", "ALB": "Albumin (ALB, Homo sapiens, UniProt P02768)", "note": "Each line is one published result; not all experiments were run side by side. “And” joins repeats or separate records; there may be more than shown. ± marks the error that the study gave."}
{"Structure (SMILES)": "COc1cc(-c2[o+]c3cc(O)cc(O)c3cc2O[C@@H]2O[C@H](CO)[C@@H](O)[C@H](O)[C@H]2O)ccc1O", "tested on": "ALB", "assay": "van't Hoff analysis", "setting": "concentration not given", "endpoint": "binding entropy change", "value": "0 kJ/(mol·K)"}
{"Structure (SMILES)": "CC(C)C[C@H](NC(=O)C[C@H](O)[C@H](CC(C)C)NC(=O)[C@H](Cc1c[nH]cn1)NC(=O)CNC(=O)[C@@H](NC(=O)[C@H](C)NC(=O)[C@H](Cc1c[nH]c2ccccc12)NC(=O)[C@H](CCC(N)=O)NC(=O)[C@@H](Cc1ccccc1)NC(=O)COCCOCCNC(=O)CCC(C(=O)O)N1CCN(CC(=O)O)CCN(CC(=O)O)CCN(CC(=O)O)CC1)C(C)C)C(N)=O (stereo partly drawn) [lutetium-177 labelled]", "test system": "BALB/c nu/nu mice, pancreas", "setting": "intravenous, 100 pmol, 1 h, added: PA 300 µg", "endpoint": "tissue uptake", "value": "6.5 ± 0.8 %ID/g"}
{"Structure (SMILES)": "NC(=O)c1ccc[n+]([C@@H]2O[C@H](COP(=O)([O-])OP(=O)(O)OC[C@H]3O[C@@H](n4cnc5c(N)ncnc54)[C@H](O)[C@@H]3O)[C@@H](O)[C@H]2O)c1", "tested on": "HSD3B1 (Homo sapiens, UniProt P14060)", "assay": "cofactor", "endpoint": "Km", "value": "34.1 µM"}
{"Structure (SMILES)": "C[C@H](N)C(=O)Nc1ccc2ccccc2c1", "tested on": "Puromycin-sensitive aminopeptidase (Rattus norvegicus, UniProt F1M9V7)", "assay": "substrate", "endpoint": "Km", "value": "10 µM"}
{"Structure (SMILES)": "Cc1cc(-c2ccnc3[nH]cc(F)c23)cc(F)c1[C@@]1(O)[C@H](C)CN(C(=O)CN)C[C@@H]1C", "tested on": "JAK1 (Homo sapiens, UniProt P23458)", "assay": "ATP/ADP probe binding, KiNativ", "test system": "HEK293T lysate", "setting": "10 µM, Lys1 peptide domain 2", "endpoint": "probe labelling inhibition", "value": "60.5%"}
{"Structure (SMILES)": "Cc1cc(O)cc(C)c1C[C@H](NC(=O)[C@@H]1CCCN1C(=O)[C@H](CCCNC(=N)N)NC(=O)[C@H](CCCNC(=N)N)N(C)C(=O)CNC(=O)[C@@H](CO)NC(=O)CNC(=O)[C@H](Cc1cn(CCNC(=O)[C@H](CC(C)C)NC(=O)[C@H](CC(C)C)NC(=O)C2OC2C(=O)NO)nn1)NC(=O)CN1CCN(CC(=O)O)CCN(CC(=O)O)CCN(CC(=O)O)CC1)C(=O)N[C@H](C(=O)N[C@@H](CC(C)C)C(=O)O)C(C)(C)C (mixture of isomers) [lutetium-177 labelled]", "test system": "human", "endpoint": "fraction unbound", "value": 0.84}
{"Structure (SMILES)": "CCCCCCCCCC=O", "tested on": "uncharacterized protein (Spodoptera exigua, UniProt F1CEY0)", "assay": "binding, competitor, fluorescence displacement", "setting": "20 µM, pH 7.4, added: 1-NPN 20 µM", "how to read": "baseline: 1-NPN alone", "endpoint": "relative fluorescence", "value": "58.9%"}
{"Structure (SMILES)": "CCCCC[C@H](O)/C=C/[C@H]1[C@H](O)CC(=O)[C@@H]1C/C=C\\CCCC(=O)O", "tested on": "PTGER1 (Homo sapiens, UniProt P34995, E294A)", "assay": "IP1 accumulation, agonist", "test system": "AD293", "setting": "1 h, EP1 E294A mutant", "endpoint": "Emax", "value": "13.4 ± 6.94%"}
{"Structure (SMILES)": "Nc1ncnc2c1ncn2[C@@H]1O[C@H](COP(=O)(O)OP(=O)(O)O)[C@@H](O)[C@H]1O", "tested on": "GUK1 (Homo sapiens, UniProt Q16774)", "assay": "binding, isothermal titration calorimetry", "setting": "molar ratio 0.297, fitted curve", "endpoint": "ΔH", "value": "-2.95 kcal/mol"}
{"Structure (SMILES)": "C1CCCC1.C1CCCC1.[Cl][W][Cl]", "tested on": "ALB", "assay": "fluorescence quenching", "setting": "317 K", "endpoint": "Stern-Volmer quenching constant", "value": "5100 L/mol"}
{"Structure (SMILES)": "Cn1cc(-c2ccc(-c3cncc(Cl)c3N3CCC4(CCNC4=O)CC3)cc2)cn1", "tested on": "COLO 205", "assay": "gene expression, microarray, refers to: PLAUR mRNA", "setting": "concentration not given, 2 h", "how to read": "baseline: untreated cells", "endpoint": "log2 fold change", "value": 2.02}
{"Structure (SMILES)": "COc1cc(-c2cncc3c2CN(C)Cc2cc(N4CCNCC4)ccc2-3)cc(OC)c1OC", "tested on": "Cyclin-dependent kinase 5, with p35 (CDK5, Homo sapiens, UniProt Q00535)", "assay": "kinase activity", "setting": "1 µM, human enzyme, added: ATP 10 µM", "how to read": "baseline: DMSO control", "endpoint": "remaining activity", "value": "112%"}
{"Structure (SMILES)": "C=CCO[C@H]1CCN2C(=O)[C@@H](NC(=O)[C@H](CCCNC(=N)N)NC(=O)[C@H](CCCNC(=N)N)NC(C)=O)CSSC[C@@H](C(=O)N[C@@H](CCCNC(=N)N)C(=O)N[C@@H](CCCNC(=N)N)C(N)=O)NC(=O)[C@H](C(C)C)NC(=O)[C@@H]3CCCN3C(=O)[C@H](CC(=O)O)NC(=O)[C@H](Cc3ccc(O)cc3)NC(=O)[C@H](CO)NC(=O)[C@H]([C@@H](C)CC)NC(=O)[C@H](Cc3ccc(-c4ccccc4)cc3)NC(=O)[C@H](CC(C)C)NC(=O)[C@H]12", "tested on": "GTPase KRas, GDP-bound (KRAS, Homo sapiens, UniProt P01116, G12D)", "assay": "affinity selection mass spectrometry", "setting": "mixture library 3, added: protein titration up to 2.5 µM", "how to read": "lower is stronger binding", "endpoint": "lowest bound protein concentration", "value": "0.04 µM"}
{"Structure (SMILES)": "CCNC(=O)/C=C/c1cccc(Br)c1", "tested on": "SLC6A19 (Homo sapiens, UniProt Q695T7)", "assay": "inhibitor, L-[14C]leucine uptake", "test system": "CHO-BC cells", "setting": "3 µM, 6 min, unit not given, added: GPNA 3 mM, JPH203 3 µM", "how to read": "baseline: uninhibited cells", "endpoint": "remaining transport activity", "value": 0.241}
{"Structure (SMILES)": "N#Cc1ccc2c(-c3ccncc3)c(-c3ccc(F)cc3)nn2c1", "tested on": "Carbon catabolite-derepressing protein kinase (SNF1, Candida albicans, UniProt P52497)", "assay": "kinase binding, competitor, MIB/MS competition, refers to: SNF1", "test system": "Candida albicans cell lysate", "setting": "100 nM", "how to read": "baseline: DMSO", "endpoint": "log2 fold change", "value": -0.0788}
{"Structure (SMILES)": "O=C(Nc1nc2ccccc2[nH]1)c1ccccc1O", "tested on": "ADORA2A (Homo sapiens, UniProt P29274)", "assay": "binding, radioligand competition", "setting": "10 µM, added: [3H]ZM241385", "endpoint": "displacement", "value": "46 ± 5%"}
{"Structure (SMILES)": "N[C@H](CNC(=O)c1ccc(-c2cccc(F)c2)s1)C(=O)O", "tested on": "Glutamate receptor ionotropic, NMDA 1, with GluN2D (Grin1, Rattus norvegicus, UniProt P35439)", "setting": "added: glutamate 300 µM", "endpoint": "Hill slope", "value": 1.51}
{"Structure (SMILES)": "Nc1ncnc2c1ncn2[C@@H]1O[C@H](COP(=O)(O)CP(=O)(O)OP(=O)(O)O)[C@@H](O)[C@H]1O", "tested on": "P2X purinoceptor 1 (P2RX1, Homo sapiens, UniProt P51575, D97A)", "assay": "calcium influx", "setting": "3.16 µM", "how to read": "baseline: ionomycin response", "endpoint": "calcium influx", "value": "93% and 91.9% and 85.7% and 75.8%"}
{"note": "Repeated from above:"}
{"Structure (SMILES)": "CCCCC[C@H](O)/C=C/[C@H]1[C@H](O)CC(=O)[C@@H]1C/C=C\\CCCC(=O)O", "tested on": "PTGER1 (Homo sapiens, UniProt P34995, E294A)", "assay": "IP1 accumulation, agonist", "test system": "AD293", "setting": "1 h, EP1 E294A mutant", "endpoint": "Emax", "value": "13.4 ± 6.94%"}
